# Assay results pooled from the literature.
# Lines come from different studies, so protocols differ. “And” joins repeats or separate records; there may be more than shown.
SMILES,organism,assay,test system,conditions,scale,measurement,value
OB(O)c1csc2ccccc12,Staphylococcus aureus,,USA300 wild type,5 µM,relative to: untreated,growth relative to untreated,69.3% and 79.4% and 89.7% and 84% and 72.7%
CN[C@H](CC(C)C)C(=O)N[C@H]1C(=O)N[C@@H](CC(N)=O)C(=O)N[C@H]2C(=O)N[C@H]3C(=O)N[C@H](C(=O)N[C@H](C(=O)O)c4cc(O)cc(O)c4-c4cc3ccc4O)[C@H](O)c3ccc(c(Cl)c3)Oc3cc2cc(c3O[C@@H]2O[C@H](CO)[C@@H](O)[C@H](O)[C@H]2O[C@H]2C[C@](C)(N)[C@H](O)[C@H](C)O2)Oc2ccc(cc2Cl)[C@H]1O,Staphylococcus aureus,,MRSA strain 3,,,MIC,2 µg/mL
S=C=NCCc1ccccc1,human coronavirus OC43,virus-induced cell killing,MRC-5,screen,,maximum inhibition,5.15%
Cc1c2c(nn1C)CSCc1cc(n(C)n1)CSc1cc(c3ccccc3c1)OCCCc1c(C(=O)O)n(C)c3c-2c(Cl)ccc13,Staphylococcus aureus,"label-free quantitative proteomics, item: SAOUHSC_00113 protein",SA113,concentration not given,relative to: untreated control,log2 fold change,-5.87
CCN(CCCOc1ccc2c(Nc3cc(CC(=O)Nc4cccc(F)c4)n[nH]3)ncnc2c1)CCOP(=O)(O)O,human coronavirus OC43,virus-induced cell killing,MRC-5,maximum over 10 doses,,maximum inhibition,0%
CC[C@H](C)[C@H](NC(=O)[C@H](CCCCN)NC(=O)[C@H](CCCCN)NC(=O)[C@H](Cc1ccccc1)NC(=O)[C@@H](NC(=O)[C@@H](NC(=O)[C@H](CCCNC(=N)N)NC(=O)[C@H](Cc1ccccc1)NC(=O)[C@@H](NC(=O)[C@H](CCCCN)NC(=O)[C@H](CCCCN)NC(=O)[C@@H](N)CCSC)[C@@H](C)CC)C(C)C)[C@@H](C)CC)C(=O)N[C@@H](CC(C)C)C(=O)N[C@@H](CCCCN)C(=O)N[C@@H](CCCNC(=N)N)C(=O)N[C@@H](CC(C)C)C(=O)N[C@H](C(=O)N[C@H](C(=O)O)C(C)C)[C@@H](C)CC,Staphylococcus aureus,broth microdilution,ATCC 25923,with: 4.5 mM KCl,,MIC,4 µg/mL
C=CC[C@@H]1c2ccc(OC)c(OC)c2CN2CCc3cc4c(cc3[C@H]12)OCO4,Staphylococcus aureus,,"P2rx7 A312V/A312V mice, skin wound infection","dose not given, day 5",relative to: day 0,relative wound size,0.98 and 0.37 and 0.65 and 0.85 and 0.6
CO/N=C(\C(=O)N[C@@H]1C(=O)N2C(C(=O)O)=C(CSC(=O)c3ccco3)CS[C@H]12)c1csc(N)n1,Staphylococcus aureus,,"CAAS-2019-CAAS-2019-11 clinical drug-resistant isolate, 25% plasma",,,MBC,32 µg/mL
CC[C@H](C)[C@H](NC(=O)[C@H](C)NC(=O)[C@H](CCCCN)NC(=O)[C@H](CC(C)C)NC(=O)[C@H](C)NC(=O)[C@@H](NC(=O)[C@H](Cc1c[nH]cn1)NC(=O)[C@H](CC(C)C)NC(=O)[C@@H](NC(=O)[C@@H](NC(=O)[C@H](CCCCN)NC(=O)[C@H](C)NC(=O)[C@H](C)NC(=O)[C@H](CO)NC(=O)[C@H](CCCCN)NC(=O)[C@H](Cc1ccccc1)NC(=O)[C@@H](NC(=O)[C@H](CCCCN)NC(=O)[C@H](CC(C)C)NC(=O)[C@H](Cc1ccccc1)NC(=O)[C@H](CO)NC(=O)[C@H](CCCCN)NC(=O)[C@H](Cc1c[nH]c2ccccc12)NC(=O)[C@H](CCCCN)NC(C)=O)[C@@H](C)O)[C@@H](C)O)C(C)C)[C@@H](C)O)C(=O)N[C@@H](CO)C(=O)N[C@@H](CO)C(N)=O,Staphylococcus aureus,,ATCC 29213,,,MBC range,8 µg/mL
CC(C)C[C@H](NC(=O)CNC(=O)CNC(=O)CNC(=O)[C@H](Cc1ccc(O)cc1)NC(=O)[C@H](CC(C)C)NC(=O)[C@@H](NC(=O)CNC(=O)[C@H](Cc1ccc(O)cc1)NC(=O)[C@H](CCCCN)NC(=O)[C@H](CC(N)=O)NC(=O)[C@@H](NC(=O)[C@H](CCCCN)NC(=O)[C@H](Cc1c[nH]c2ccccc12)NC(=O)CN)[C@@H](C)O)[C@@H](C)O)C(=O)N[C@@H](CCCCN)C(=O)N[C@@H](CCCCN)C(=O)N[C@@H](CC(C)C)C(=O)N[C@@H](CC(C)C)C(=O)N[C@@H](CC(C)C)C(=O)N[C@@H](CC(C)C)C(=O)N[C@@H](CC(C)C)C(=O)N[C@@H](CCCCN)C(=O)N[C@@H](CCCCN)C(=O)N[C@@H](CC(C)C)C(=O)NCC(=O)O,Staphylococcus aureus,,USA300,with: 6 µM NH4Cl,,MIC,32 µg/mL
CCCCCCCCCC(=O)N[C@@H](Cc1c[nH]c2ccccc12)C(=O)N[C@H](CC(N)=O)C(=O)N[C@@H](CC(=O)O)C(=O)N[C@@H]1C(=O)NCC(=O)N[C@@H](CCCN)C(=O)N[C@@H](CC(=O)O)C(=O)N[C@H](C)C(=O)N[C@@H](CC(=O)O)C(=O)NCC(=O)N[C@H](CO)C(=O)N[C@@H]([C@H](C)CC(=O)O)C(=O)N[C@@H](CC(=O)c2ccccc2N)C(=O)O[C@@H]1C,Staphylococcus aureus,broth microdilution,"VISA LIM strain 2, Mueller-Hinton broth, Mg2+ 10 mg/L","16 h, with: Ca2+ 5 mM",,MIC,0.125 µg/mL

# Excerpt of the above:
SMILES,organism,assay,test system,conditions,scale,measurement,value
CC[C@H](C)[C@H](NC(=O)[C@H](CCCCN)NC(=O)[C@H](CCCCN)NC(=O)[C@H](Cc1ccccc1)NC(=O)[C@@H](NC(=O)[C@@H](NC(=O)[C@H](CCCNC(=N)N)NC(=O)[C@H](Cc1ccccc1)NC(=O)[C@@H](NC(=O)[C@H](CCCCN)NC(=O)[C@H](CCCCN)NC(=O)[C@@H](N)CCSC)[C@@H](C)CC)C(C)C)[C@@H](C)CC)C(=O)N[C@@H](CC(C)C)C(=O)N[C@@H](CCCCN)C(=O)N[C@@H](CCCNC(=N)N)C(=O)N[C@@H](CC(C)C)C(=O)N[C@H](C(=O)N[C@H](C(=O)O)C(C)C)[C@@H](C)CC,Staphylococcus aureus,broth microdilution,ATCC 25923,with: 4.5 mM KCl,,MIC,4 µg/mL
